Measurements gathered from unrelated publications.
Lines come from different studies, so protocols differ.
Cell line: HL-60

| SMILES | read-out | mode | technique | time | with | IC50 |
| --- | --- | --- | --- | --- | --- | --- |
| COc1ccc(/C=C/C(/C=C2/C(=O)Nc3cc(Br)ccc32)=N\O)cc1 | cell growth or viability |  | MTT | 24 h |  | 3.3 µM |
| COc1cc(/C=C/c2ccccc2)cc(OC)c1 | ROS generation | inhibitor | DCFH-DA |  | PMA | > 25 µg/mL |
| Cc1cc(C)n(C(N)=S)n1.Cc1ccc(C(C)C)cc1.[Cl][Ru][Cl] | cell growth or viability |  | MTT | 48 h |  | 88.9 µM |
| COc1cc(O)cc(/C=C/c2ccccc2)c1 | ROS generation | inhibitor | DCFH-DA |  | PMA | > 25 µg/mL |
| CCCCNc1ncnc2c1sc1nc3ccccc3cc12 | cell growth or viability |  | trypan blue | 48 h |  | 12 µM |
| O=C1c2cccc(O)c2C(=O)c2c(O)cc(CO)cc21 | cell growth or viability |  | ATP luminescence | 24 h |  | 225 µM |
| C[C@@H]1CC2=C(CN1Cc1cccc(C#N)c1)C(=O)N(Cc1ccc(Br)cc1)C1=NCCN12 | cell growth |  | MTS | 72 h |  | 0.0046 µM |
| CC(C)/C=C/c1c(O)cc(/C=C/c2ccc(O)cc2)cc1O | reactive oxygen species | inhibitor | fluorescence |  |  | 0.17 µg/mL |
| Cc1cc(O)c2c(c1)C(=O)c1cc(O)cc(O)c1C2=O | cell growth or viability |  | ATP luminescence | 24 h |  | 5 µM |
| Oc1cc(O)cc(/C=C/c2ccccc2)c1 | ROS generation | inhibitor | DCFH-DA |  | PMA | > 25 µg/mL |
| C(=C\c1ccccc1)/c1ccccc1 | cell growth or viability |  | ATP luminescence | 24 h |  | 135 µM |
| COc1ccc(/C=C/C(=O)/C=C2/C(=O)Nc3cc(Br)ccc32)cc1 | cell viability |  | MTT | 24 h |  | 1.7 µM |
| O=c1c(O)c(-c2ccc(O)c(O)c2)oc2cc(O)cc(O)c12 | cell growth or viability |  | ATP luminescence | 24 h |  | 8 µM |
| Cc1ccc(C(C)C)cc1.Cc1ccc(C(C)C)cc1.[Cl][Ru][Cl].[Cl][Ru][Cl] | cell growth or viability |  | MTT | 48 h |  | 401 µM |

Repeated from above:
| SMILES | read-out | mode | technique | time | with | IC50 |
| --- | --- | --- | --- | --- | --- | --- |
| Oc1cc(O)cc(/C=C/c2ccccc2)c1 | ROS generation | inhibitor | DCFH-DA |  | PMA | > 25 µg/mL |
